Experimental data collected from several papers.
Protocols differ between the studies behind these lines. Numbers after ± are the reported error.
F2: Prothrombin (F2, Homo sapiens, UniProt P00734)
prp N63Q: Ribosomal processing cysteine protease Prp (prp, Staphylococcus aureus, UniProt Q2FXS9, N63Q)
Chain of UniProt P35368 (whole entry, looked up): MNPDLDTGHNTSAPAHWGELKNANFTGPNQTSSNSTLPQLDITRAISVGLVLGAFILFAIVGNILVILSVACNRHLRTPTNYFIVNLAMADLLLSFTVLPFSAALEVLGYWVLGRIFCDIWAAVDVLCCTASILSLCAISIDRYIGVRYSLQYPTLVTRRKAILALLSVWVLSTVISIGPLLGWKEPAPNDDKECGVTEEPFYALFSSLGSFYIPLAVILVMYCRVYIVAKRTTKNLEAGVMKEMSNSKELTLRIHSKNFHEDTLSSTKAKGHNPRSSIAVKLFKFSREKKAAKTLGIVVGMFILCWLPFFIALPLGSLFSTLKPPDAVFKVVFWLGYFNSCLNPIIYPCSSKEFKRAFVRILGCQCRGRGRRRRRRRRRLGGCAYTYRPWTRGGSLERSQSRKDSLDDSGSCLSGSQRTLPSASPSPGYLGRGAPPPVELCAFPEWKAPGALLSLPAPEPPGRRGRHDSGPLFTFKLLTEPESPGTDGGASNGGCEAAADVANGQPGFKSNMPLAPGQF
Chain of UniProt O43497 (whole entry, looked up): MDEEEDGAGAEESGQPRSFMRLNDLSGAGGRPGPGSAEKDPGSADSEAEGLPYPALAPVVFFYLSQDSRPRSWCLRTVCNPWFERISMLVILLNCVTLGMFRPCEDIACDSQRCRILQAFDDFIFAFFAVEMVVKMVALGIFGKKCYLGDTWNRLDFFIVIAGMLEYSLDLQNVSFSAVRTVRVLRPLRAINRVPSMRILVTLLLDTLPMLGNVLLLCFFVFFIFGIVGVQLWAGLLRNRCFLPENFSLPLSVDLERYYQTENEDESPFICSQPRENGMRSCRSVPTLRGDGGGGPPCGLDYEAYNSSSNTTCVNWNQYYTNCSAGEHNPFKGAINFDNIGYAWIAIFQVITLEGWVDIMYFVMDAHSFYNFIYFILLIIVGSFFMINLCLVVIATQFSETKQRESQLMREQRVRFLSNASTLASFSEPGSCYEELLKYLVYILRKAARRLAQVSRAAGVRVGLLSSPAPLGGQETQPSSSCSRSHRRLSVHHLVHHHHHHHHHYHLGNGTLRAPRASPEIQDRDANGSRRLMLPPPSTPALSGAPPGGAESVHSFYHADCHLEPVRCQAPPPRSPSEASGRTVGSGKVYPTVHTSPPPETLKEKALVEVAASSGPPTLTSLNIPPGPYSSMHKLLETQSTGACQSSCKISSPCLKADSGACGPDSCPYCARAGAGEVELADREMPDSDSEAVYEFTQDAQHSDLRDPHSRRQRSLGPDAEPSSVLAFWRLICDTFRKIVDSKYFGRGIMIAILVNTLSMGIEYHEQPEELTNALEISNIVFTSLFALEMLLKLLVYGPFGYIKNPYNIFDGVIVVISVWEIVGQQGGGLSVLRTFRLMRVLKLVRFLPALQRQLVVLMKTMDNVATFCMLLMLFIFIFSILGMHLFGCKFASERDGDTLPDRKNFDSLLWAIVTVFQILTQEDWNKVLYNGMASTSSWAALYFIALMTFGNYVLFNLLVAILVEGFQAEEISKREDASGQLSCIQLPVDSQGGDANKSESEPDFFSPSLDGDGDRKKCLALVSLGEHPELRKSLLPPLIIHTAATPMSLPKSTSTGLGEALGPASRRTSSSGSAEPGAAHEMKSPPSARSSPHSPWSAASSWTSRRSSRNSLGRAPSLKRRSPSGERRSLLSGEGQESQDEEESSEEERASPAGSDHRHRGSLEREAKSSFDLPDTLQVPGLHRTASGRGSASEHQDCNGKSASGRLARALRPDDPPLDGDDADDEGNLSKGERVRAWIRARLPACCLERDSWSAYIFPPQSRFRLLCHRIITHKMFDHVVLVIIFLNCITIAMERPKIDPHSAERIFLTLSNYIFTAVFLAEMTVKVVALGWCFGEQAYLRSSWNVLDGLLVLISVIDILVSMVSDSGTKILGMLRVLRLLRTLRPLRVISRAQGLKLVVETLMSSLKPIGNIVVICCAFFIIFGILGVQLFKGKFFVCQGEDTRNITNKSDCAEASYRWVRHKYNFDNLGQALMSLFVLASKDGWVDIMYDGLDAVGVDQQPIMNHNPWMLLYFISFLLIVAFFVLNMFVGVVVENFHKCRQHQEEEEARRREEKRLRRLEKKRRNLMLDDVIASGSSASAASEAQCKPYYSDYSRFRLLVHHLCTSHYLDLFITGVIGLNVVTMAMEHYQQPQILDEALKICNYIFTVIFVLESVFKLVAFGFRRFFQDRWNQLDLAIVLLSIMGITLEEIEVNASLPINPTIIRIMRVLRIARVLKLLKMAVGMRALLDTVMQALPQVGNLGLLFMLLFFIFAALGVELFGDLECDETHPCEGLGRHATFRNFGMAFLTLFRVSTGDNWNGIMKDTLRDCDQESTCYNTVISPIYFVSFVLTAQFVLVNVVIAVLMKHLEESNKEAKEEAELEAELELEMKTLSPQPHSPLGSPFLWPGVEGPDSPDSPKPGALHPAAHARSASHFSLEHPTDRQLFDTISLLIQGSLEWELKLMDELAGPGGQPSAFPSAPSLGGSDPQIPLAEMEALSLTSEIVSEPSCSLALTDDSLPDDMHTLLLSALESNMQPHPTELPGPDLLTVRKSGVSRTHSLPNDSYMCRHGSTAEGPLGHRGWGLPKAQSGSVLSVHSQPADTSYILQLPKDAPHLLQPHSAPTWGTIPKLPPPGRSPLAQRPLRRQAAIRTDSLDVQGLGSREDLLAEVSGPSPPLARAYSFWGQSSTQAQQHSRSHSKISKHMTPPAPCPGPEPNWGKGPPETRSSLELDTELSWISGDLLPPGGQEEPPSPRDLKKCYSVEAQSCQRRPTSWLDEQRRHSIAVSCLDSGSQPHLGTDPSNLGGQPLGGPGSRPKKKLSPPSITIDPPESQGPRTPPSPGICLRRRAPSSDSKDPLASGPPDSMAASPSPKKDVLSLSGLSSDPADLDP
Chain of UniProt Q09013 (whole entry, looked up): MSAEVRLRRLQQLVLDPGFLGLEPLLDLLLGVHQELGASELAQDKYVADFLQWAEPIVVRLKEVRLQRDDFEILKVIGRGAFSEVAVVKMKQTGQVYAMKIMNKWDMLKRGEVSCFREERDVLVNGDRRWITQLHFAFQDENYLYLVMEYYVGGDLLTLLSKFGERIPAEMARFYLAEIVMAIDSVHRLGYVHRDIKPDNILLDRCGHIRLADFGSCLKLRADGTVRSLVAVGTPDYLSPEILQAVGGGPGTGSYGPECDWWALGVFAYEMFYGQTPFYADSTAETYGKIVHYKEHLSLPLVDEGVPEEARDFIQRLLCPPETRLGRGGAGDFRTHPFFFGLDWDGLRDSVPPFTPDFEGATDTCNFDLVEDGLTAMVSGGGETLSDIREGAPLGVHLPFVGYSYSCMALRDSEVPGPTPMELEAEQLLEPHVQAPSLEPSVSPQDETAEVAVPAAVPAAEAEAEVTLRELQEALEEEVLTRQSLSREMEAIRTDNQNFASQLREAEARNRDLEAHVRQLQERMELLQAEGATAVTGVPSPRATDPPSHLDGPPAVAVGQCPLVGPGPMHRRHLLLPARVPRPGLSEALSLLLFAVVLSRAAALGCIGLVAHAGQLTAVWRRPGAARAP
Chain of UniProt Q13258 (whole entry, looked up): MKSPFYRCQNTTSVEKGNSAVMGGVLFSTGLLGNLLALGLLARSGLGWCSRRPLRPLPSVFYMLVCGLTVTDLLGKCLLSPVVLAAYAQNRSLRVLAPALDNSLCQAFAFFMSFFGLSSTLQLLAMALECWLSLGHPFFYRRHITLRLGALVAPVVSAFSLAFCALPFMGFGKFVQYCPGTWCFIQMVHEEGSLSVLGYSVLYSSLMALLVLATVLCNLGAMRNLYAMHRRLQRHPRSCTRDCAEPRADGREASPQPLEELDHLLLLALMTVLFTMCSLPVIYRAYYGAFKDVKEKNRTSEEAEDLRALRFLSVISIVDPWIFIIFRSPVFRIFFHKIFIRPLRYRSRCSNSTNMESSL
Chain of UniProt P37288 (whole entry, looked up): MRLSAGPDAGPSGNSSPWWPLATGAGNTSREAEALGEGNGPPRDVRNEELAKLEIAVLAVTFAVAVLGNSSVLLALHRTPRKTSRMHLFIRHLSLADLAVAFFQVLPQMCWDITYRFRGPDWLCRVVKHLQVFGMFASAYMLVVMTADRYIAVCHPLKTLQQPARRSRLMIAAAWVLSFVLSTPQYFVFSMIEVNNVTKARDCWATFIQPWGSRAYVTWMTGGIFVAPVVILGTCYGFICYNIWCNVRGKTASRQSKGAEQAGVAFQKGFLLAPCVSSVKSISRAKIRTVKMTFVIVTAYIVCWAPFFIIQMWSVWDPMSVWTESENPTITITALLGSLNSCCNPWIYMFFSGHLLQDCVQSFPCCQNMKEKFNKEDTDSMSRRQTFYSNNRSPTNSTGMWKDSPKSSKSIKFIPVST
Chain of UniProt Q06187 (whole entry, looked up): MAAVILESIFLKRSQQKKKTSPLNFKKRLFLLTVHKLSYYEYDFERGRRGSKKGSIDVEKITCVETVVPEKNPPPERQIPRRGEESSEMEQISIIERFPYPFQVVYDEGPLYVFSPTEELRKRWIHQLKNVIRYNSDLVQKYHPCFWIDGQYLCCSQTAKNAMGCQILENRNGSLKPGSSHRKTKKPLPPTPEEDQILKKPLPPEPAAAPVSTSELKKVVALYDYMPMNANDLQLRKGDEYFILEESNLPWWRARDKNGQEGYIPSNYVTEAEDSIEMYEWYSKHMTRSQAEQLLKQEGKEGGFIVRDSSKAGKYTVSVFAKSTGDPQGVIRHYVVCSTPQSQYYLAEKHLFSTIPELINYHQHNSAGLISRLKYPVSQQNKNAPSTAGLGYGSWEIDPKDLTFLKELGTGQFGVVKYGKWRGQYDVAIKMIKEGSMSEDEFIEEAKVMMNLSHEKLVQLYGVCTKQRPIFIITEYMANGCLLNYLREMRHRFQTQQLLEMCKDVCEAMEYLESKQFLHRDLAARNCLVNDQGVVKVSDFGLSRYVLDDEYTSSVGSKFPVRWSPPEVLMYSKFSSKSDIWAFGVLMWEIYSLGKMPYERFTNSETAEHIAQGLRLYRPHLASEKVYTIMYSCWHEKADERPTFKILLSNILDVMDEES

With `CC(C(=O)Nc1ccc2c(c1)B(O)OC2)c1cccc(Oc2ccccc2)c1` (centres unmarked) the inhibition was at most 10% (F2; enzyme activity; 50 µM, together with: substrate 50 µM).
With `CCCCCn1c2ccccc2c2cc(C(=O)NCC3CCN(CC(=O)NC(C)(C)C)CC3)ccc21` the inhibition was 44.5 ± 7% (CACNA1G (Homo sapiens, UniProt O43497); calcium current, blocker, whole-cell voltage clamp; 3 µM).
`O=C(Nc1ccc2c(c1)B(O)OC2)c1ccc(C(F)(F)F)cc1` gave an inhibition of at most 10% (F2; enzyme activity; 50 µM, together with: substrate 50 µM).
`C[C@@H]1N=C(c2ccccc2F)c2cc(Br)ccc2-n2cnc(C(=O)O)c21` gave an inhibition of 42.4 ± 11.6% (GABA-A receptor GABA site; binding; 10 µM).
Under inhibition, `COc1c2c(cc3c1-c1c(cc4c(c1OC)OCO4)C[C@H](C)[C@H](C)C3)OCO2` is recorded as “inhibited” (CES1 (Homo sapiens, UniProt P23141); intracellular hydrolysis, inhibitor, bioluminescence imaging; renal cells; 20 µM).
The inhibition of `N#Cc1ccc(COc2cccc(C(=O)Nc3ccc4c(c3)B(O)OC4)c2)cc1` is reported as at most 10% (F2; enzyme activity; 50 µM, together with: substrate 50 µM).
`O=C(COc1ccccc1Br)NCCc1nc2ccccc2[nH]1` has an inhibition of 0% (Beta-lactamase (ampC, Escherichia coli K-12, UniProt P00811); enzyme activity, inhibitor; 100 µM, together with: CENTA substrate).
Under inhibition, `Clc1cccc(-c2c[nH]c3nccc(N4CCOCC4)c23)c1` is recorded as “inhibited” (STK4 (Homo sapiens, UniProt Q13043); kinase activity, inhibitor, PhosphoSens kinetic; concentration not given, 2 h, together with: ATP at Km).
For `O=C1C(=O)N(Cc2ccc(Cl)c(Cl)c2)c2ccccc21`, the inhibition was 37.7 ± 7.7% (prp N63Q; enzyme activity; 10 µM, 21.4 nM enzyme dimer, together with: 0.5 µM FITC-labelled peptide substrate).
For `c1ccc(C(NCCNC(c2ccccc2)c2ccccc2)c2ccccc2)cc1`, the inhibition was -15% (Ca2+-ATPase, pig skeletal muscle; enzyme activity; 10 µM, Eurofins selectivity panel).
For `Cc1ncc(C)n2nc(/C=C/c3nc(N4CCCC4)cc(N4CCOCC4)n3)nc12`, the inhibition was 4% (SKCa potassium channel; radioligand binding; 10 µM).
`CN(CCN1CCC(OC(=O)Nc2ccccc2-c2ccccc2)CC1)C(=O)c1ccc(CN2CCC(C(N)=O)CC2)cc1` gave an inhibition of 3% (rat GABA transporter; radioligand binding; 1 µM, together with: [3H]GABA 10 nM).
`COc1ccc(N2C(=O)N(c3c(C)cccc3Cl)Cc3cnc(Nc4ccc(C5CCN(C)CC5)cc4OC)nc32)nc1` has an inhibition of 88% (FGFR2 (Homo sapiens, UniProt P21802); kinase activity; 0.5 µM).
`Cn1cc(-c2cc(F)cc(N3CCn4c(cc5c4CCCC5)C3=O)c2CO)cc(Nc2ccc(N3CCN(C4COC4)CC3)cn2)c1=O` gave an inhibition of 91% (BTK (Homo sapiens, UniProt Q06187); kinase activity; 0.1 µM).
For `CN1CCN(c2cc(-c3ccncc3)c(-c3ccc4ccccc4c3)nn2)CC1`, the inhibition was 15.9% (ADRA1B (Homo sapiens, UniProt P35368); antagonist, FLIPR; 10 µM).
`COC(=O)N[C@H](C(=O)N1CCC[C@H]1c1nc(-c2ccc(-c3ccc(-c4c[nH]c([C@@H]5CCCN5C(=O)[C@@H](NC(=O)OC)C(C)C)n4)cc3)cc2)c[nH]1)C(C)C` gave an inhibition of 21.1 ± 4.6% (prp N63Q; enzyme activity, inhibitor; 10 µM, prp 21.4 nM, together with: FITC peptide substrate 0.5 µM).
`COCc1c(-c2cc3cc(C)cc(OC)c3s2)c2c(N)ncnn2c1CN1CCNC(=O)C1` gave an inhibition of -3% (phosphodiesterase 4; enzyme activity; 10 µM).
With `O=C(Nc1ccccc1)Nc1ccc2c(c1)B(O)OC2` the inhibition was at most 10% (F2; enzyme activity; 50 µM, together with: substrate 50 µM).
For `CC(C)N1CCC[C@H]1CNC(=O)c1cn(C2CCCC2)c(=O)c2c1c1ccccc1n2C`, the inhibition was 49% (sodium channel site 2 (rat); radioligand binding; 10 µM).
`O=C(Nc1ccc2c(c1)B(O)OC2)c1cccc(NCc2ccccc2)c1` has an inhibition of at most 10% (F2; enzyme activity; 50 µM, together with: substrate 50 µM).
`CC1=C(O)C(=O)C=C2C1=CC=C1[C@@]2(C)CC[C@@]2(C)[C@@H]3C[C@](C)(C(=O)O)CC[C@]3(C)CC[C@]12C` has an inhibition of -42.1 ± 6.7% (prp N63Q; enzyme activity, inhibitor; 10 µM, prp 21.4 nM, together with: FITC peptide substrate 0.5 µM).
The inhibition of `Cn1cccc1-c1cccnc1` is reported as 2% (HTR1B (Homo sapiens, UniProt P28222); binding; 50 µM).
For `CC(C)C[C@H](NC(=O)CNC(=O)c1cc(Cl)ccc1Cl)B(O)O`, the inhibition was -6.57 ± 6% (prp N63Q; enzyme activity, inhibitor; 10 µM, prp 21.4 nM, together with: FITC peptide substrate 0.5 µM).
`O=C(Nc1cccnn1)N1CCC(=Cc2cccc(Oc3ccc(C(F)(F)F)cn3)c2)CC1` gave an inhibition of 1% (DMPK (Homo sapiens, UniProt Q09013); kinase activity, inhibitor; 10 µM, together with: Axltide substrate).
`COc1cccc(COc2cccc(C(=O)Nc3ccc4c(c3)B(O)OC4)c2)c1` gave an inhibition of at most 10% (F2; enzyme activity; 50 µM, together with: substrate 50 µM).
With `COc1cc(Nc2ncc(F)c(Nc3ccc4c(n3)NC(=O)C(C)(C)O4)n2)cc(OC)c1OC` the inhibition was 95% (CSK (Homo sapiens, UniProt P41240); KINOMEscan; 10 µM).
The inhibition of `O=c1ccc2ccccc2o1` is reported as 1.88% (ADRA2A (Homo sapiens, UniProt P08913); antagonist radioligand binding; 10 µM, SafetyScreen44).
The inhibition of `CC(C)(C)C#Cc1cc(N(C(=O)[C@H]2CC[C@H](C)CC2)[C@H]2CC[C@H](O)CC2)c(C(=O)O)s1` is reported as 37.8 ± 28.1% (prp N63Q; enzyme activity, inhibitor; 10 µM, prp 21.4 nM, together with: FITC peptide substrate 0.5 µM).
`O=C(Nc1cnccc1Cl)N1CCN(Cc2ccc3c(c2)OC(F)(F)O3)CC1` gave an inhibition of 4% (PTGDR (Homo sapiens, UniProt Q13258); radioligand binding, inhibitor; 50 µM, human, together with: [3H]prostaglandin D2).
`CC[C@H](C)[C@H](NC(=O)[C@H]([C@@H](C)CC)N(C)C(C)=O)C(=O)N[C@H](C(=O)N[C@@H](CC(C)C)C(=O)[C@@]1(C)CO1)[C@@H](C)O` has an inhibition of 38.5 ± 7.3% (prp N63Q; enzyme activity; 10 µM, 21.4 nM enzyme dimer, together with: 0.5 µM FITC-labelled peptide substrate).
For `O=C(N1CCC2(CC1)C[C@@H](CN1CCCCS1(=O)=O)CCO2)C1(c2ccccc2)CCCC1`, the inhibition was 0% (ATP-dependent RNA helicase DDX1 (Homo sapiens, UniProt Q92499); ATPase activity; 50 µM).
For `CCC[C@H](NC(=O)[C@@H]1[C@H]2CCC[C@H]2CN1C(=O)[C@@H](NC(=O)[C@@H](NC(=O)c1cnccn1)C1CCCCC1)C(C)(C)C)C(=O)C(=O)NC1CC1`, the inhibition was 41.8 ± 16.2% (prp N63Q; enzyme activity, inhibitor; 10 µM, prp 21.4 nM, together with: FITC peptide substrate 0.5 µM).
The inhibition of `CN(C(=O)n1cnc(-c2ccc[n+]([O-])c2)c1)C1CCCCC1` is reported as -10% (AVPR1A (Homo sapiens, UniProt P37288); radioligand binding; 50 µM).
For `CCOC(=O)[C@H]1O[C@@H]1C(=O)N[C@@H](CC(C)C)C(=O)NCCC(C)C`, the inhibition was 18.9 ± 11.5% (prp N63Q; enzyme activity, inhibitor; 10 µM, prp 21.4 nM, together with: FITC peptide substrate 0.5 µM).
The inhibition of `CC(=O)NC[C@H]1[C@H](O)[C@H](O)[C@@H]2[C@H](O)C[C@@H](CO)N21` is reported as 61.6% (human placental β-N-acetylglucosaminidase; 0.00644 µM, run 1, together with: p-nitrophenyl GlcNAc).

A few entries again:
`Cn1cc(-c2cc(F)cc(N3CCn4c(cc5c4CCCC5)C3=O)c2CO)cc(Nc2ccc(N3CCN(C4COC4)CC3)cn2)c1=O` gave an inhibition of 91% (BTK (Homo sapiens, UniProt Q06187); kinase activity; 0.1 µM).
For `CN1CCN(c2cc(-c3ccncc3)c(-c3ccc4ccccc4c3)nn2)CC1`, the inhibition was 15.9% (ADRA1B (Homo sapiens, UniProt P35368); antagonist, FLIPR; 10 µM).
